Published values from different studies.
Parts stem from different laboratories: compare values within a part only. Changes are numbered by the printed parent chain.
Chain of UniProt O00238 (whole entry, looked up): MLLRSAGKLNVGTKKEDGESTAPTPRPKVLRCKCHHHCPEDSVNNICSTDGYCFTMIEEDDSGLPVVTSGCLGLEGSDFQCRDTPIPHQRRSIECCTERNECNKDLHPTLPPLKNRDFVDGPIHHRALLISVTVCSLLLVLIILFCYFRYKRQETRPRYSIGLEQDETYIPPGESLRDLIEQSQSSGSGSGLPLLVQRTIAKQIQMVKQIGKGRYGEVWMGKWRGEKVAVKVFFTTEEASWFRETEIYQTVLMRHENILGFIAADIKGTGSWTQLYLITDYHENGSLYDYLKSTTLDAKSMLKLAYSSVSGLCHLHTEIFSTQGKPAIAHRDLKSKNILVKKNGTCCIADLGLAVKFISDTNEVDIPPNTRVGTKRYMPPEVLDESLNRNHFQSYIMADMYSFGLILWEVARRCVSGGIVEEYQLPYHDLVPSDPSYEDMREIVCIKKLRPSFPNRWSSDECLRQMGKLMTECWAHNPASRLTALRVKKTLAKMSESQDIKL
Chain of UniProt Q8TF76 (whole entry, looked up): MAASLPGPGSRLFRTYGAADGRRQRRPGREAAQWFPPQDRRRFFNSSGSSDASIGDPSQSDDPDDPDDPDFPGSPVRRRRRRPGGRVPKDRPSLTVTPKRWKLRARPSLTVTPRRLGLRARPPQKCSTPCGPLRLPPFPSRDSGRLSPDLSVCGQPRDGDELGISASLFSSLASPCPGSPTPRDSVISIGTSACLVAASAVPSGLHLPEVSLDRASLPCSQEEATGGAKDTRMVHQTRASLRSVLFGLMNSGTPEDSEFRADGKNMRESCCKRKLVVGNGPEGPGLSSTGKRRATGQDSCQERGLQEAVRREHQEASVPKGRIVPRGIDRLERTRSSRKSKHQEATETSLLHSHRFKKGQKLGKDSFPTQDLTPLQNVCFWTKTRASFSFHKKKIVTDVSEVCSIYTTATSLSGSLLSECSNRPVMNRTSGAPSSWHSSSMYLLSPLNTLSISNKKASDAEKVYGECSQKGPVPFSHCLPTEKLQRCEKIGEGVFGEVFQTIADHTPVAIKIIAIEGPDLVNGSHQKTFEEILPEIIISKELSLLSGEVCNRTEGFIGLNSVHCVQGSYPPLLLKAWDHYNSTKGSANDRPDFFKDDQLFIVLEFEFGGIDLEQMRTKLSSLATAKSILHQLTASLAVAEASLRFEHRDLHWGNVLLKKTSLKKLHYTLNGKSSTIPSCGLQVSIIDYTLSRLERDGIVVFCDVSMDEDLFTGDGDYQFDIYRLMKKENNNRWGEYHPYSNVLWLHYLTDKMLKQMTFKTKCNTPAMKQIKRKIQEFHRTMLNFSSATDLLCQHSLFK
Chain of UniProt Q6ZN16 (whole entry, looked up): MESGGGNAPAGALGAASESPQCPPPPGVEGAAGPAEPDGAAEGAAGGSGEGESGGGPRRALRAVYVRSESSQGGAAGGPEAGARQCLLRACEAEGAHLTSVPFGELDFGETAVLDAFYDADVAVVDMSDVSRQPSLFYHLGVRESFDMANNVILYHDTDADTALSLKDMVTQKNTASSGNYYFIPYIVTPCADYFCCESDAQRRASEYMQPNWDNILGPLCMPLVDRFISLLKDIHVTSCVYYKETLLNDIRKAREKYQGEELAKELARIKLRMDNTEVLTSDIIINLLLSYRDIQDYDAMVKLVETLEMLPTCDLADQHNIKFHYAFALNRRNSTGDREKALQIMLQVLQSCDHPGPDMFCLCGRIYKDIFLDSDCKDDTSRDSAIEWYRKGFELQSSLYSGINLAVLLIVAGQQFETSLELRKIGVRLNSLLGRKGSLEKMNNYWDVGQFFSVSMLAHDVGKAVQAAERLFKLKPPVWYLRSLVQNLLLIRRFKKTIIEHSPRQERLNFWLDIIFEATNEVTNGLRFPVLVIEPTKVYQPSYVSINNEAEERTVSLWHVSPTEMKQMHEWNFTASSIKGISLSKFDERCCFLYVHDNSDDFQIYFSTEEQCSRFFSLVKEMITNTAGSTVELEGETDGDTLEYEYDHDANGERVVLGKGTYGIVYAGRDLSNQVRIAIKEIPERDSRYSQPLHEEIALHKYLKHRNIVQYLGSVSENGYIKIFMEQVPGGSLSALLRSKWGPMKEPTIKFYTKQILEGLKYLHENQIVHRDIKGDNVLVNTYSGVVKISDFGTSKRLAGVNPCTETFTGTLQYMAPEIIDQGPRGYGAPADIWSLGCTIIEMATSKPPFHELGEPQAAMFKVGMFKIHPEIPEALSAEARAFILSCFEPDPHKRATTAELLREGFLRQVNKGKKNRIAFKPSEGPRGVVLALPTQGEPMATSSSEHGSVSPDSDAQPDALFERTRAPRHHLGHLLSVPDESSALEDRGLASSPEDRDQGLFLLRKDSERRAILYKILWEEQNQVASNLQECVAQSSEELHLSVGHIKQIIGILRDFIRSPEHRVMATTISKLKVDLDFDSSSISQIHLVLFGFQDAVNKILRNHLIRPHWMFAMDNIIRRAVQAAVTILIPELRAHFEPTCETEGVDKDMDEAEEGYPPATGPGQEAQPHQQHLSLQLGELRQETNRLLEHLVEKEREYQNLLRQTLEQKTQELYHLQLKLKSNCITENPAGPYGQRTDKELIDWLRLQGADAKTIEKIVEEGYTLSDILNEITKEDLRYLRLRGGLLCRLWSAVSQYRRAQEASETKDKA
Chain of UniProt P53671 (whole entry, looked up): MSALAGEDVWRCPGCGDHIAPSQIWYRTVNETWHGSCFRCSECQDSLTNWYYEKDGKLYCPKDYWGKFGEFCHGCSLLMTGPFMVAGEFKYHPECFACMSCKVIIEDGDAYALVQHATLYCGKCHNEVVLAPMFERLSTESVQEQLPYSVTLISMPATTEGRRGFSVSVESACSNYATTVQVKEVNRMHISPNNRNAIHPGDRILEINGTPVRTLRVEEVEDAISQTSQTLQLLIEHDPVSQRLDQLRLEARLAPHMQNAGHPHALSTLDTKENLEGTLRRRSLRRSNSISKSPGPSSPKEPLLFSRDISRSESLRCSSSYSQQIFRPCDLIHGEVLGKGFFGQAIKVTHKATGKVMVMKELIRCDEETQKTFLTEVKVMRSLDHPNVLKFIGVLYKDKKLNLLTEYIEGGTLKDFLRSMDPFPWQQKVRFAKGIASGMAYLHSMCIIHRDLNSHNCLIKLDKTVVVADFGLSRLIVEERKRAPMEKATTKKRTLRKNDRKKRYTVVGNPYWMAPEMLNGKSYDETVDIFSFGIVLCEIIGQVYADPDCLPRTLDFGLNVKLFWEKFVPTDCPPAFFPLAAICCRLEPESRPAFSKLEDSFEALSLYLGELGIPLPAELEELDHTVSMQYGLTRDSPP

Series 1 — technique: competition with immobilised ligand; concentration: 1 µM
Structure (SMILES): O=C(Nc1cccnn1)N1CC(C/C=C/c2cncc(Oc3ccc(C(F)(F)F)cn3)n2)C1
| target | read-out | remaining binding [%] |
| --- | --- | --- |
| HASPIN (Homo sapiens, UniProt Q8TF76) | cell-free assay | 79 |
| FGFR1 (Homo sapiens, UniProt P11362) | cell-free assay | 100 |
| BMPR1B (Homo sapiens, UniProt O00238) | cell-free assay | 91 |
| MET (Homo sapiens, UniProt P08581, Y1235D) | cell-free assay | 100 |
| MAP3K15 (Homo sapiens, UniProt Q6ZN16) | cell-free assay | 81 |
| TXK (Homo sapiens, UniProt P42681) | binding | 100 |
| EPHA7 (Homo sapiens, UniProt Q15375) | cell-free assay | 100 |
| FLT3 (Homo sapiens, UniProt P36888, D835V/ITD) | cell-free assay | 68 |
| EGFR (Homo sapiens, UniProt P00533, T790M) | cell-free assay | 100 |
| MAP4K2 (Homo sapiens, UniProt Q12851) | cell-free assay | 80 |
| MKNK2 (Homo sapiens, UniProt Q9HBH9) | cell-free assay | 77 |
| LIM domain kinase 2 (LIMK2, Homo sapiens, UniProt P53671) | cell-free assay | 95 |

Series 2 — read-out: enzyme activity; mode: inhibitor; concentration: 0.5 µM; reference: control
Target: Focal adhesion kinase 1 (PTK2, Homo sapiens, UniProt Q05397)
Chain of UniProt Q05397 (whole entry, looked up): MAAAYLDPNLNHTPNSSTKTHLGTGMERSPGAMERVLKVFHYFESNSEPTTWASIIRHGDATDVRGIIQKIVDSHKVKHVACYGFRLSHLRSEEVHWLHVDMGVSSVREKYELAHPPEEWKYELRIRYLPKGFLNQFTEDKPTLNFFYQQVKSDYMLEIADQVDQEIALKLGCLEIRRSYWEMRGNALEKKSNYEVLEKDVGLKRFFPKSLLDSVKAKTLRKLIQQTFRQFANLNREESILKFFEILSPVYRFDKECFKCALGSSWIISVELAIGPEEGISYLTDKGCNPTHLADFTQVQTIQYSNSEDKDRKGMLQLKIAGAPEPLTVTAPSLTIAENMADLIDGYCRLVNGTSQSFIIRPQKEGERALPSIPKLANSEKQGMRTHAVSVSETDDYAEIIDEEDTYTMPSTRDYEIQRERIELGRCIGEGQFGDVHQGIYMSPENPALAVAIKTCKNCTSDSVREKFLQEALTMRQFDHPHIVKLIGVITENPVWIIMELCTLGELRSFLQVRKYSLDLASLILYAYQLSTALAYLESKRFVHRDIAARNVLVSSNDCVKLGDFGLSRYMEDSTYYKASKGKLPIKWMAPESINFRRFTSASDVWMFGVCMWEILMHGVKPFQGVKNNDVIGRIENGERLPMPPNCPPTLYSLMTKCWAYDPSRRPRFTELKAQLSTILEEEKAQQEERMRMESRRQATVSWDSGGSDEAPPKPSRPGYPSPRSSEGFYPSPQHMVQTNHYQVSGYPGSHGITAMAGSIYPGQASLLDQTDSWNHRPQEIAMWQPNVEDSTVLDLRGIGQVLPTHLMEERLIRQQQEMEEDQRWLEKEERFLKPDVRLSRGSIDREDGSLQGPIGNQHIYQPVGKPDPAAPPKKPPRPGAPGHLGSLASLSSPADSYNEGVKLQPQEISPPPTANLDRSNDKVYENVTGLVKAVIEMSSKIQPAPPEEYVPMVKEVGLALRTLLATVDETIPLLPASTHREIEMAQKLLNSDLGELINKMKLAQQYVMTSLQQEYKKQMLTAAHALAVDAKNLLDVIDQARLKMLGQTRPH
| SMILES | remaining activity [%] |
| --- | --- |
| COc1ccc(OC)c2c(=S)c3ccccc3[nH]c12 | 106 |
| Cc1nc(-c2ccccc2)c(-c2ccncc2)o1 | 106 |
| O=C(CCCc1ccc(-c2ccccc2F)cc1)Nc1ccc(O)cc1 | 102 |
| NCCNc1ncc(C(N)=O)c(Nc2cccc(C(F)(F)F)c2)n1 | 44 |
| CN(C)c1ccc(C=C2C(=O)Nc3ccccc32)cc1 | 104 |
| CCOC(=O)c1c(C)[nH]c(/C=C2\C(=O)Nc3ccccc32)c1C | 93 |
| OCC(O)CCON=C1C(c2c(O)[nH]c3ccccc23)=Nc2ccccc21 (stereo not drawn) | 35 |
| O=C(O)c1ccc2c3c1cccc3c(=O)n1c3ccccc3nc21 | 97.5 |
| Nc1ncnc2n[nH]c(Nc3ccc(F)cc3)c12 | 103 |
| O=S(=O)(c1cccc2cnccc12)N1CCCNCC1 | 93.9 |
| CC(C)[C@H](CO)Nc1nc(Nc2cc(N)cc(Cl)c2)c2ncn(C(C)C)c2n1 | 59.5 |
| C#Cc1cccc(Nc2ncnc3cc(OCCOC)c(OCCOC)cc23)c1 | 108 |
| COc1ccc(CNC(=O)Nc2ncc([N+](=O)[O-])s2)cc1 | 101 |
| Cc1ccc(Nc2nccc(N(C)c3ccc4c(C)n(C)nc4c3)n2)cc1S(N)(=O)=O | 76 |

Series 3 — technique: RNA Bind-n-Seq; form: RNA; sample: in vitro; concentration: 200 nM; notes: whole 134-nt RNA, ends assumed; together with: 150 mM LiCl; reference: input library; reading: higher = stronger binding; library: 7-deaza-guanosine replaces G
Target: Ras GTPase-activating protein-binding protein 1, full length (G3BP1, Homo sapiens, UniProt Q13283)
Chain of UniProt Q13283 (whole entry, looked up): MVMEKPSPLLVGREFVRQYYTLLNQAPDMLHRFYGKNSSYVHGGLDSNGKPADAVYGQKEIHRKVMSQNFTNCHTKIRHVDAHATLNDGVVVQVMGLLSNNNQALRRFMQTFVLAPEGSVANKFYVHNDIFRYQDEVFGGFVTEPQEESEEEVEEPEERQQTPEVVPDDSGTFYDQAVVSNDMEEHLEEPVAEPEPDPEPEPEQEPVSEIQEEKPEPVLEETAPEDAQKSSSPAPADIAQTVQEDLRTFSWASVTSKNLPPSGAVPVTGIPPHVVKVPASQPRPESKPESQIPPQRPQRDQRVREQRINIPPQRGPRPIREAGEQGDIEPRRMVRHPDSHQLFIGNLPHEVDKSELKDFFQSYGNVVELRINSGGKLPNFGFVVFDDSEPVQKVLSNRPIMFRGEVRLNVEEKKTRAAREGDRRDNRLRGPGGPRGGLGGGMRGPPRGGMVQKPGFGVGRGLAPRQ
Constant ends, left off below: GGGAGUUCUACAGUCCGACGAUC … UGGAAUUCUCGGGUGUCAAGG
| Strand | log2 enrichment |
| --- | --- |
| CUGUGCUACACAUCGUAUGUACCGAAUCGGGGUUUUUUUGGGUUUUUUUGGGUUUUUUUGGAAAGUAUUAUGUUACGCCGUUCGGAUCUG | 1.36 |
| UCCUCAAGUCCUGUGCUACACAUCGUAUGUACCGAAUCGGUUUGGAGGAGGAAAGUAUUAUGUUACGCCGUUCGGAUCUGCACUUCCAGC | -0.828 |
| CUCAAGUCCUGUGCUACACAUCGUAUGUACCGAAUCGGGAAGGGAAGGGAAGGAAAGUAUUAUGUUACGCCGUUCGGAUCUGCACUUCCA | -0.203 |
| GAAAGAAGUAAAAACAAAUGGAAAUGCUUCGGAUAGUGGCAGGGGUGGGGGUUGCUAAGGAAAGGGUGGGAUGGGAGUGGGUAAAGAGUU | -0.383 |
| AAGUCCUGUGCUACACAUCGUAUGUACCGAAUCGGCCCCCGGCCCCCGGGCCCCCGGAAAGUAUUAUGUUACGCCGUUCGGAUCUGCACU | -0.53 |
| CCUCAAGUCCUGUGCUACACAUCGUAUGUACCGAAUCGGUGGAAAGGAAAGGAAAGUAUUAUGUUACGCCGUUCGGAUCUGCACUUCCAG | 0.353 |
| AGUUACUCAGUUCAUUUUGGAUAACUACAUUGAAAGAGGAAAAGGAUCUGCUUGCAGAAUAGUUUGUACUCAGCCAAGAAGAAUUAGUGC | -3.27 |
| UCAAGUCCUGUGCUACACAUCGUAUGUACCGAAUCGGAAAGGUGGAAAAAAAGGAAAGUAUUAUGUUACGCCGUUCGGAUCUGCACUUCC | -0.123 |

Series 4 — technique: DHFR PCA, deep sequencing; sample: yeast; together with: (+)-ABA 58 µM; reference: wild-type fitted maximum; reading: higher = stronger binding
Target: ABI1, truncated, D143A, DHFR fusion (Arabidopsis thaliana)
Notes: methotrexate growth selection, single substitutions
Starting sequence: PYL1, truncated, DHFR fusion (Arabidopsis thaliana); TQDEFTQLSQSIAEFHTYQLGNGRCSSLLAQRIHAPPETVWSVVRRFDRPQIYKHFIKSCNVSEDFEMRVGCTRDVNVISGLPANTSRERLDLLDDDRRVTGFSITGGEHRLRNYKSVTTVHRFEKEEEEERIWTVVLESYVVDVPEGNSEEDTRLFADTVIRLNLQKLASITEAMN
| Substitution | relative binding score [%] |
| --- | --- |
| T1V | 91.9 |
| Y115N | -0.464 |
| L82S | 5.02 |
| E139L | 56 |
| E128R | 87.6 |
| N61I | 84.2 |
| Y18G | 57.8 |
| T135P | 6.78 |

A few entries again (series 1):
| target | read-out | remaining binding [%] |
| --- | --- | --- |
| EPHA7 (Homo sapiens, UniProt Q15375) | cell-free assay | 100 |
| FLT3 (Homo sapiens, UniProt P36888, D835V/ITD) | cell-free assay | 68 |
| EGFR (Homo sapiens, UniProt P00533, T790M) | cell-free assay | 100 |
| MAP4K2 (Homo sapiens, UniProt Q12851) | cell-free assay | 80 |
| MKNK2 (Homo sapiens, UniProt Q9HBH9) | cell-free assay | 77 |
| LIM domain kinase 2 (LIMK2, Homo sapiens, UniProt P53671) | cell-free assay | 95 |
